{"data": "Measurements from different studies", "rep papain-like protease": "Replicase polyprotein 1ab, papain-like protease (rep, Severe acute respiratory syndrome coronavirus 2, UniProt P0DTD1)", "Matrix protein 2 S31N": "Matrix protein 2 (Influenza A virus, UniProt P0DOF5, S31N)", "rep main protease": "Replicase polyprotein 1ab, main protease (rep, Severe acute respiratory syndrome coronavirus 2, UniProt P0DTD1)", "rep nsp14": "Replicase polyprotein 1ab, nsp14 (rep, Severe acute respiratory syndrome coronavirus 2, UniProt P0DTD1)", "note": "Lines come from different studies, so protocols differ. Several values in a cell are separate wells, animals, samples, runs or records. ± gives the spread as reported."}
{"Structure (SMILES)": "C[C@H](c1cccc2ccccc12)N1CCC(C(=O)NCc2cccc(NC(=O)N3CCN(C)CC3)c2)CC1", "target": "rep papain-like protease", "assay": "nsp1-nsp2 cleavage, western blot", "system": "HEK293T cells", "conditions": "10 µM", "endpoint": "inhibition", "result": "inhibited"}
{"Structure (SMILES)": "Cc1ccc(CNC23CC4CC(CC(C4)C2)C3)o1", "target": "Matrix protein 2 S31N", "assay": "proton channel activity, inhibitor", "system": "Influenzavirus A, S31N mutant", "conditions": "100 µM", "endpoint": "inhibition", "result": "37%"}
{"Structure (SMILES)": "CC(C)(C)[C@H](NC(=O)NC1(CS(=O)(=O)C(C)(C)C)CCCCC1)C(=O)N1C[C@H]2[C@@H]([C@H]1C(=O)N[C@H](C#N)C[C@@H]1CCNC1=O)C2(C)C", "target": "rep main protease", "assay": "thermal stabilisation, DSF", "conditions": "10 µM protein, 20-fold inhibitor", "scale": "baseline: no inhibitor", "endpoint": "ΔTm", "result": "16.7 °C"}
{"Structure (SMILES)": "O=c1cc(-c2ccc(O)cc2)oc2c([C@@H]3OC[C@H](O)[C@H](O)[C@H]3O)c(O)c([C@@H]3O[C@H](CO)[C@@H](O)[C@H](O)[C@H]3O)c(O)c12", "target": "Replicase polyprotein 1ab, papain-like protease Y268A (rep, Severe acute respiratory syndrome coronavirus 2, UniProt P0DTD1, Y1831A)", "assay": "enzyme activity, inhibitor", "conditions": "concentration not given, PLpro Y268A mutant", "endpoint": "inhibition", "result": "33.7%"}
{"Structure (SMILES)": "CC(C)CC(C(=O)N1CC2(CC1C#N)C(=O)Nc1ccccc12)N(C)C(=O)c1cc2c(F)cc(F)c(F)c2[nH]1 (stereo not drawn)", "target": "Replicase polyprotein 1ab, main protease K90R/A193V (rep, Severe acute respiratory syndrome coronavirus 2, UniProt P0DTD1, A3456V/K3353R)", "conditions": "0.1 µM", "endpoint": "remaining activity", "result": "-0.252% and 0.057% and -0.215%"}
{"Structure (SMILES)": "CNC(=O)CC[C@H](Cc1ccccc1)NC(=O)[C@@H](Cc1ccc(Cl)cc1Cl)NC(=O)[C@H](N)Cc1ccccc1[N+](=O)[O-]", "target": "rep main protease", "assay": "immobilized protein counterscreen", "scale": "baseline: 3CL protease alone", "endpoint": "enrichment index", "result": 17100}
{"Structure (SMILES)": "CC(C)C[C@H](NC(=O)OCc1ccccc1)C(=O)N[C@H](C=O)C[C@@H]1CCNC1=O", "target": "Replicase polyprotein 1ab, main protease C145A (rep, Severe acute respiratory syndrome coronavirus 2, UniProt P0DTD1, C3408A)", "assay": "thermal shift", "system": "SARS-CoV-2", "endpoint": "melting temperature", "result": "60.9 ± 0.1 °C"}
{"Structure (SMILES)": "CNC(=O)C[C@H](Cc1ccncc1)NC(=O)[C@@H](Cc1cccc(Br)c1)NC(=O)[C@@H](N)Cc1cccc(F)c1", "target": "rep main protease", "assay": "immobilized protein counterscreen", "scale": "baseline: 3CL protease alone", "endpoint": "enrichment index", "result": 2500}
{"Structure (SMILES)": "O=C(NC1CCN(c2ncnc3[nH]cnc23)CC1)c1cccc(NS(=O)(=O)c2ccc(C(F)(F)F)cc2)c1", "target": "rep nsp14", "assay": "enzyme activity", "system": "SARS-CoV-2", "conditions": "3.125 µM", "endpoint": "inhibition", "result": "77.4%"}
{"Structure (SMILES)": "O=C1CC(=O)c2c(Cl)c(Cl)c(Cl)c(Cl)c21", "target": "rep papain-like protease", "assay": "enzyme activity, inhibitor", "conditions": "10 µM", "endpoint": "inhibition", "result": "~50%"}
{"Structure (SMILES)": "Brc1cc(CNC23CC4CC(CC(C4)C2)C3)on1", "target": "Matrix protein 2 S31N", "assay": "proton channel activity, inhibitor", "system": "Influenzavirus A, S31N mutant", "conditions": "100 µM", "endpoint": "inhibition", "result": "38%"}
{"Structure (SMILES)": "O=C(NC1CCN(c2ncnc3[nH]cnc23)CC1)c1cccc(S(=O)(=O)Nc2ccc3[nH]ncc3c2)c1", "target": "rep nsp14", "assay": "enzyme activity", "system": "SARS-CoV-2", "conditions": "concentration not given", "endpoint": "inhibition", "result": "36%"}
{"note": "Excerpt of the above:"}
{"Structure (SMILES)": "C[C@H](c1cccc2ccccc12)N1CCC(C(=O)NCc2cccc(NC(=O)N3CCN(C)CC3)c2)CC1", "target": "rep papain-like protease", "assay": "nsp1-nsp2 cleavage, western blot", "system": "HEK293T cells", "conditions": "10 µM", "endpoint": "inhibition", "result": "inhibited"}
{"Structure (SMILES)": "Cc1ccc(CNC23CC4CC(CC(C4)C2)C3)o1", "target": "Matrix protein 2 S31N", "assay": "proton channel activity, inhibitor", "system": "Influenzavirus A, S31N mutant", "conditions": "100 µM", "endpoint": "inhibition", "result": "37%"}
